Assay results collected from several papers.
A part holds a random share of what one study measured.

Study 1 — method: universal PBM; form: double-stranded DNA, one strand shown; medium: in vitro; concentration: 600 nM; reading: higher = stronger binding
Target: Sal-like protein 4, full length isoform A (SALL4, Homo sapiens, UniProt Q9UJQ4, residues 1-1053)
UniProt Q9UJQ4, sequence (whole entry, looked up): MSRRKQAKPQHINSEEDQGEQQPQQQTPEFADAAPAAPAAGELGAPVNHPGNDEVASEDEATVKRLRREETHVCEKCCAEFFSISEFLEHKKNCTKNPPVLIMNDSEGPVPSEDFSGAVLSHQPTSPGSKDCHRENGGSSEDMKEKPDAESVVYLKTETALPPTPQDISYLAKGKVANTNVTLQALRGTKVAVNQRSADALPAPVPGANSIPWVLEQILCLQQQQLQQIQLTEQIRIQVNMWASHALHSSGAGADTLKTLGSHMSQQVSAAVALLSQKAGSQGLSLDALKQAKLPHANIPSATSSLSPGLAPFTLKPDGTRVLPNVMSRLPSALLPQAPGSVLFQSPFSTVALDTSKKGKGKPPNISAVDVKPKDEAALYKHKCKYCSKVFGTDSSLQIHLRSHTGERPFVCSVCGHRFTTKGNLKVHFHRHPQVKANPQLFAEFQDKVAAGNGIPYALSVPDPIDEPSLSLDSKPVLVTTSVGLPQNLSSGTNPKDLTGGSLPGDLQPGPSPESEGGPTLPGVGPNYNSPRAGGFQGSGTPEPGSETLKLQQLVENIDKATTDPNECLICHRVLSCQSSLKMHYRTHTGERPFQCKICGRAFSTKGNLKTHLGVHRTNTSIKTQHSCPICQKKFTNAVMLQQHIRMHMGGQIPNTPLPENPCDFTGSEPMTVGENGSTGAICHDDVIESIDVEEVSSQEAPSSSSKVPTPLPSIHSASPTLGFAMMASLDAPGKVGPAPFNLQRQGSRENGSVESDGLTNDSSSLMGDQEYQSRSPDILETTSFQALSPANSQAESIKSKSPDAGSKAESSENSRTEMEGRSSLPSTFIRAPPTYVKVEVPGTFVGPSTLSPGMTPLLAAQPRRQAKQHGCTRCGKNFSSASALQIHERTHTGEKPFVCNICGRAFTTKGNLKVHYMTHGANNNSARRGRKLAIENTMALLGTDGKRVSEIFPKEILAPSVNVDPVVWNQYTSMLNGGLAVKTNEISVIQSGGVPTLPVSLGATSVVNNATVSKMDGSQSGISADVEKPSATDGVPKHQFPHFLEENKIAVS
Notes: 8-mer, flanks averaged, mean of replicates
| Oligonucleotide | E-score |
| --- | --- |
| CTCTACAG | 0.00931 |
| AGCTGAAC | -0.289 |
| AGACGACG | -0.208 |
| ACCAGCTA | -0.0497 |
| CTGCCCCC | -0.281 |
| ATCCGTCG | -0.102 |
| AGGCTTAC | -0.177 |
| GCATGATA | 0.284 |
| TAGAGCAA | -0.0123 |
| GCGCTGCC | -0.34 |
| CTCCCCTC | -0.343 |
| GCCATCAA | -0.0416 |
| GGCACCAC | -0.316 |
| GGACAACC | -0.283 |
| GCCGAGGC | -0.281 |
| CACACCAG | -0.109 |
| AGTCTATC | -0.0105 |

Study 2 — method: protein binding microarray; form: double-stranded DNA, one strand shown; medium: in vitro; concentration: not given; baseline: not given; reading: higher = stronger binding
Target: Histone acetyltransferase KAT6A, winged helix 2, GST fusion (KAT6A, Homo sapiens, UniProt Q92794, residues 85-181)
Notes: 8-mer, flanks averaged, mean of 2 arrays, mostly near background
Construct (chain): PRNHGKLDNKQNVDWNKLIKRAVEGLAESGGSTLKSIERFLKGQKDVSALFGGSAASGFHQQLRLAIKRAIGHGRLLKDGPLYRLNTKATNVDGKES
| Oligonucleotide | E-score |
| --- | --- |
| AGGAACCA | 0.0874 |
| AGACGCCT | -0.155 |
| GCGAGGAA | 0.157 |
| CACAACGG | -0.0811 |
| GCCTGAAC | -0.00781 |
| CTTGTAAA | -0.0182 |
| CCTCGGGC | 0.109 |
| ACAGTCGC | -0.177 |
| CATCTGAA | 0.0047 |
| CTTCGAAA | -0.00346 |
| GGAGGAAC | -0.0657 |
| ACAGGACT | -0.126 |
| CCATTCCA | 0.0353 |
| ATCACGAT | -0.165 |
| GGCTTCAC | -0.116 |
| CGTAAGAA | -0.0543 |

Study 3 — method: protein-binding microarray; form: double-stranded DNA, one strand shown; medium: in vitro; concentration: 2540 nM top; notes: 60-bp whole probe; added: salmon DNA 0.4 mg/ml; baseline: random background probes; reading: higher = stronger binding; all sequences stand within: GCCTAGCAC … GTCTTGATTCGCTTGACGCTGCTG
Target: Interferon regulatory factor 3, full length, phosphomimetic (IRF3, Homo sapiens, UniProt Q14653, residues 1-427, S386D/S396D/S398D/S402D/T404D/S405D)
Residues (chain): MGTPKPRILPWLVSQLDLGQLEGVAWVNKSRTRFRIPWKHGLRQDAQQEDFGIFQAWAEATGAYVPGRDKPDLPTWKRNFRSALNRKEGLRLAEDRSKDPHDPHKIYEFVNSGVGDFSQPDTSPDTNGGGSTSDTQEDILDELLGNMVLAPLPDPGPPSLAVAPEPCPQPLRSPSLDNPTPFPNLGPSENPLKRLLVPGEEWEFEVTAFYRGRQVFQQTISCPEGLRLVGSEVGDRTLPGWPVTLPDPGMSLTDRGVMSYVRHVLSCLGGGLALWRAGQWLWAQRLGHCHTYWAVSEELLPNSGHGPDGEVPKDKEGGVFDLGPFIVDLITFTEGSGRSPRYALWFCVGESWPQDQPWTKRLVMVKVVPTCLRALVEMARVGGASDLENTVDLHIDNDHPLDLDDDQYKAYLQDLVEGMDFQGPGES
| Oligonucleotide | fitted relative affinity [z-score] |
| --- | --- |
| TCACCCTTTGCTTTCCTACTGTGCTAG | 2.39 |
| GGGATGGTGGGGCTCCTCCTGTGCTAG | -1.26 |
| TCAATTACCTCATCTTTCACTGTGCTA | 0.858 |
| GACGGACTGGACACGGGGGACGTGCTA | -0.226 |
| GAAGATCTCAGTCTCGAGACGTGCTAG | 0.352 |
| TACTCTCTCCATGTGTTTAAGTGCTAG | 0.513 |
| GACGGACTGGAACTGGGGACGTGCTAG | -0.56 |
| GACGGACTTGGTATCGGGACGTGCTAG | 0.331 |
| TCAGCTTTCTCTTTCACACTGTGCTAG | 3.19 |
| GAAGATTTCAGTATCGAGACGTGCTAG | 1.97 |
| TTAGGTATCCTACTGCGTTAGTGCTAG | 2.41 |
| GACGAACTGAGTATCGAGATGTGCTAG | 0.0811 |
| TTCGCTTTCTTTACCACATTGTGCTAG | 2.25 |
| TTAGGTTTCGGACTGCGTTAGTGCTAG | 4.27 |
| TTAGGTTTCGGGTATCGCTTAGTGCTA | 4.15 |
| TCATATTTACTCTCTACAACTGTGCTA | 0.922 |
| GACGATCTCAGTCTCGAAACGTGCTAG | 1.09 |
| CACGGTTTCGGTTCCGGGACGTGCTAG | 9.76 |
| TTAGGTATCGGTCTTGGTTAGTGCTAG | 4.36 |

Study 4 — method: RNA Bind-n-Seq; form: RNA; medium: in vitro; concentration: 1 µM; notes: whole 134-nt RNA, ends assumed; added: 150 mM KCl; baseline: input library; reading: higher = stronger binding
Target: Ras GTPase-activating protein-binding protein 1, C-terminal RGG region (G3BP1, Homo sapiens, UniProt Q13283)
UniProt Q13283, sequence (whole entry, looked up): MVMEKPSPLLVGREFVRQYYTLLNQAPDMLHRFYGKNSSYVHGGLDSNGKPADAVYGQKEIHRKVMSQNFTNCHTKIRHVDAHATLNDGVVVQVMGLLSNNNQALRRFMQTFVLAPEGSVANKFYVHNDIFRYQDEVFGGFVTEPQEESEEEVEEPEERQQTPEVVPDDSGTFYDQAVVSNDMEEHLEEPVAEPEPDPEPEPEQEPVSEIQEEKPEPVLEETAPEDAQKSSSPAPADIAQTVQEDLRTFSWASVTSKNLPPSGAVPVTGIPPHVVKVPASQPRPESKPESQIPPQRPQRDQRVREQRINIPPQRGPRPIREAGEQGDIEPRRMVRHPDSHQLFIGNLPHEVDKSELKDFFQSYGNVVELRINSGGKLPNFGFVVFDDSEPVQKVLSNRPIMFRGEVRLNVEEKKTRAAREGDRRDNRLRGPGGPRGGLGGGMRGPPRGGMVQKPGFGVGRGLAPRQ
All sequences stand within: GGGAGUUCUACAGUCCGACGAUC … UGGAAUUCUCGGGUGUCAAGG
| Oligonucleotide | log2 enrichment |
| --- | --- |
| CCUCAAGUCCUGUGCUACACAUCGUAUGUACCGAAUCGGAGGAGGAAAAAGGAAAGUAUUAUGUUACGCCGUUCGGAUCUGCACUUCCAG | -0.903 |
| ACCAUGCAGGUGGGCAUCUUUGGGAAGUGGGGCAAGGGGGGGAUAGGGAGGGGGGUAACACUUUGGGAACAGGUGGUCCCAGGUCAAAUC | -0.77 |
| ACCAUGCAGGUGGGCAUCUUUGGGAAGUGGGGCAAGGGGGGGAUAGGGAGGGGGGUAACACUUUGGGAACAGGUGGUCCCAGGAAAUUUC | -0.791 |
| CACAGACAACACGCACCCACACAGACACAGAGGGAAGGGGUUCGGAUGGGGACAGGGUGCACAGCAGGGCGGGGUAGGACCCCAGCCCCU | 1.15 |
| GUCCUGUGCUACACAUCGUAUGUACCGAAUCGGGAAAAAAAGGGAGGGAAAAAAAGGGAAAGUAUUAUGUUACGCCGUUCGGAUCUGCAC | -0.315 |
| AGUCCUGUGCUACACAUCGUAUGUACCGAAUCAAACCCCCAAACCCAAACCCCCAAAAAAGUAUUAUGUUACGCCGUUCGGAUCUGCACU | -1.31 |
| ACCAUGCAGGUGGGCAUCUUUGGGAAGUGGGGCAAGGGGGGGAUAGGGAGGGGGGUAACACUUUUGGAACAGGUGGUCCCAGGUCGUUUC | 2.55 |
| UGAGUAGAUCUAGAAAUGACAGUAUGACUUUGUUUCUAACAGCUCCAAAAUGGAUCAAAAUGUUUGUUUUGGAUGAAGCAGAUGAAAUGU | -2.83 |
| UGCCUCCCUGCUGCAGAAAUACACCGACAACAGCGAGAAGCCAUCCGGGAAGAGACUGUGCAAAACCAAACACUUGAUCCCUCAGGAGUC | -0.962 |

Study 5 — method: RNA Bind-n-Seq; form: RNA; medium: in vitro; concentration: 365 nM; baseline: no-protein control; reading: higher = stronger binding
Target: RNA binding protein fox-1 homolog 2, RRM domain, GST-SBP tag (RBFOX2, Homo sapiens, UniProt O43251-10, residues 100-194)
Notes: natural RNA segment, single round, ends assumed
All sequences stand within: GGGAGUUCUACAGUCCGACGAUC … UGGAAUUCUCGGGUGCCAA
Construct (chain): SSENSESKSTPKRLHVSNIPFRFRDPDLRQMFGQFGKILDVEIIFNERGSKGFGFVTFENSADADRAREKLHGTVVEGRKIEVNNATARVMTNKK
| Oligonucleotide | RBNS enrichment (R) |
| --- | --- |
| GAGCCAGCUAGGGCAGGAGUUGGGGAAAGACGCGCAGAAAGGCAAGCCCGAGUCAGGGCACUUGUUAUUUAAAUGUGCCAUUUCCCAGGUUGCCACCCUUCAUAGAGUUU | 0.402 |
| AAGACUAUCCAAGCUGUGCUGACUGUCCCCAAGCUGAAGCUGAGCUUCGAAGGCGAACUUACCAAGUCUCUGCAGGACAUGGAGCUACAGUCGUUGUUUGAAUCACCCGA | 0.296 |
| UUGUAAACCAUUUACUGUCUGGGCAAUAGUGACUCCGUUUAAUAAAAGCUUCCGUAGUGCAUUGGUAUGGAUUAAAUGCAUAAAAUAUUCUUAGACUCGAUGCUGUAUAA | 1.82 |
| CAGCGCCCUGGCAAAGGCUGACAACUGGCUGUCUUGGGGCCGAACAGCCCCUGCCCUGCCUCUGAGGGCCCACCAGCCUGUGCUGCAUACCCACCGCCCAGCUUCUCCCU | 0.253 |
| GCUACUGUUAUAAAUCAUAAUGUAAAUCUCUGUGUUUUCUGGUAGUUUUAGGUAACCCCUGUGAGAGGGUCGUUCCAUACUCCACCCCCCAGGGGUCACAACCUACAGGU | 0.258 |
| CUGUGCUCUGCCAUCCAUCCAGACAGAAACCAGCCCCAACGCCUCCAGUUCUGUUUUUGCAUCGUGACAAAGAGAGCACAGCCAAUUCUCAUGCUGGCUUCUUCAGAUAC | 1.33 |
| UUUUUUUUUGAAAGUUUCAGCCUGUGGGAGGAAAAGAGGUAUCUUUUAAAAUAGAGAUAGUUACAUAUUUUCCUCAUCUAGGCUGUGUCACUAUUGGGUGCAAGGAUAUC | 0.363 |
| UUCCCAUAUGCCCCUGGAGCCCCACUUAUUGAGGCCAGCAGAAUAGGUGCAGAGAUGAAGUGAGCUUAGAGAUGUUGCAAAUGCUCUUUAUCCCUUCAGCUCUCUGAUCU | 0.521 |

Some of these lines once more (study 5):
| Oligonucleotide | RBNS enrichment (R) |
| --- | --- |
| GAGCCAGCUAGGGCAGGAGUUGGGGAAAGACGCGCAGAAAGGCAAGCCCGAGUCAGGGCACUUGUUAUUUAAAUGUGCCAUUUCCCAGGUUGCCACCCUUCAUAGAGUUU | 0.402 |
| AAGACUAUCCAAGCUGUGCUGACUGUCCCCAAGCUGAAGCUGAGCUUCGAAGGCGAACUUACCAAGUCUCUGCAGGACAUGGAGCUACAGUCGUUGUUUGAAUCACCCGA | 0.296 |
| UUGUAAACCAUUUACUGUCUGGGCAAUAGUGACUCCGUUUAAUAAAAGCUUCCGUAGUGCAUUGGUAUGGAUUAAAUGCAUAAAAUAUUCUUAGACUCGAUGCUGUAUAA | 1.82 |
| CAGCGCCCUGGCAAAGGCUGACAACUGGCUGUCUUGGGGCCGAACAGCCCCUGCCCUGCCUCUGAGGGCCCACCAGCCUGUGCUGCAUACCCACCGCCCAGCUUCUCCCU | 0.253 |
| GCUACUGUUAUAAAUCAUAAUGUAAAUCUCUGUGUUUUCUGGUAGUUUUAGGUAACCCCUGUGAGAGGGUCGUUCCAUACUCCACCCCCCAGGGGUCACAACCUACAGGU | 0.258 |
| CUGUGCUCUGCCAUCCAUCCAGACAGAAACCAGCCCCAACGCCUCCAGUUCUGUUUUUGCAUCGUGACAAAGAGAGCACAGCCAAUUCUCAUGCUGGCUUCUUCAGAUAC | 1.33 |
| UUUUUUUUUGAAAGUUUCAGCCUGUGGGAGGAAAAGAGGUAUCUUUUAAAAUAGAGAUAGUUACAUAUUUUCCUCAUCUAGGCUGUGUCACUAUUGGGUGCAAGGAUAUC | 0.363 |
| UUCCCAUAUGCCCCUGGAGCCCCACUUAUUGAGGCCAGCAGAAUAGGUGCAGAGAUGAAGUGAGCUUAGAGAUGUUGCAAAUGCUCUUUAUCCCUUCAGCUCUCUGAUCU | 0.521 |
